Measured values collected from several papers.
Protocols differ between the studies behind these lines. pIC50: −log10 of the molar value.
Target: Acetylcholinesterase (ache, Electrophorus electricus, UniProt O42275)
UniProt O42275, sequence (whole entry, looked up): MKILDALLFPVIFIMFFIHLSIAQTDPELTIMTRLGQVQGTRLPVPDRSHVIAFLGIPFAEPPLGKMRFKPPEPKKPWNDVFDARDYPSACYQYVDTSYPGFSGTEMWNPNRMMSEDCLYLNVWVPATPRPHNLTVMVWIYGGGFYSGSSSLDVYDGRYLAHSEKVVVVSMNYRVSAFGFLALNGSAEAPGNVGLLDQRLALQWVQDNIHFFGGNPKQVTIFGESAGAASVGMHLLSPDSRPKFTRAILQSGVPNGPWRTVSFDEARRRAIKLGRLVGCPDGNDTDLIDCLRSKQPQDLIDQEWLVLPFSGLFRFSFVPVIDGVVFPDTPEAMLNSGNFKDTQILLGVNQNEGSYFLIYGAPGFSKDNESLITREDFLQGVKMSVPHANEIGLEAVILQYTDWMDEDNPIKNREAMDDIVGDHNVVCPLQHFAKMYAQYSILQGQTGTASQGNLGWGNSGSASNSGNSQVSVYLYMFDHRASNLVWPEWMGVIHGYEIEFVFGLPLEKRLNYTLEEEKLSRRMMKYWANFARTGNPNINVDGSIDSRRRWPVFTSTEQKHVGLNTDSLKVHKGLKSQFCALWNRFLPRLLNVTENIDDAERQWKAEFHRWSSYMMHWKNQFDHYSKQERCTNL
Read-out: enzyme activity
Mode: inhibitor
Technique: Ellman

SMILES	conditions	pIC50
COc1ccc2[nH]cc(CCNS(=O)(=O)CCc3cn(-c4cc(C)cc(C)c4)nn3)c2c1		7.59
O=S(=O)(N/N=C/c1ccc(OS(=O)(=O)c2ccc(Cl)cc2)cc1)c1cc(Cl)ccc1Cl		7.25
COc1ccc(-c2csc(NN=C(C=Cc3ccc(Cl)cc3)C(=O)O)n2)cc1		6.16
O=S(=O)(N/N=C/c1ccc(OS(=O)(=O)c2ccccc2)cc1)c1ccc(Cl)cc1		7.45
Ic1ccccc1/N=N/c1ccc2nc(-c3ccccc3)cc(-c3ccccc3)c2c1	pH 7.4	4.88
CCCCN(C)c1c(C)nc2ccc(C(=O)N3CCC[C@@H](C(N)=O)C3)cn12		5.35
Cc1ccc(-c2csc(NN=C(C=Cc3c(Cl)cccc3Cl)C(=O)O)n2)cc1		6.29
O=S(=O)(CCc1cn(-c2cnc3ccccc3c2)nn1)NCCc1c[nH]c2ccc(Cl)cc12		6.98
CN1CCN(c2ccc(Nc3cc4[nH]c(-c5cccc(F)c5)cc4cn3)cc2)CC1		4.78
Cc1ccc(S(=O)(=O)Oc2ccc(/C=N/NS(=O)(=O)c3ccc(Cl)cc3)cc2)cc1		7.76
CCc1nc2ccc(C(=O)NCCOc3ccc(OC)cc3)cn2c1N(C)Cc1ccc(OC)cc1		5.47
O=C(O)C(/C=C/c1ccc(Cl)cc1)=N\Nc1nc(-c2ccc([N+](=O)[O-])cc2)cs1		5.94
CCCCN(C=O)c1c(CC)nc2ccc(C(=O)N(C)Cc3ccco3)cn12		4.90
COc1ccc(S(=O)(=O)Oc2ccc(/C=N/NS(=O)(=O)c3cc(Cl)ccc3Cl)cc2)cc1		7.46

Repeated from above:
SMILES	conditions	pIC50
COc1ccc2[nH]cc(CCNS(=O)(=O)CCc3cn(-c4cc(C)cc(C)c4)nn3)c2c1		7.59
O=S(=O)(N/N=C/c1ccc(OS(=O)(=O)c2ccc(Cl)cc2)cc1)c1cc(Cl)ccc1Cl		7.25
